Values quoted from earlier work that unrelated publications cite.
Numbered parts are unrelated; values within a part may stem from several laboratories. ≈ marks a conversion by molar mass, not a printed value.

Set 1 — organism: Cryptosporidium parvum; method: high-throughput screen; tested at: concentration not given
SMILES	activity
CC(=O)OCC(=O)[C@@]1(O)CC[C@H]2[C@@H]3CCC4=CC(=O)CC[C@]4(C)[C@H]3C(=O)C[C@@]21C	inactive
CN1CCN2c3ncccc3Cc3ccccc3C2C1 (stereo not drawn)	inactive
C[C@@H](O)[C@H]1C(=O)N2C(C(=O)O)=C(S[C@@H]3CN[C@H](C(=O)N(C)C)C3)[C@H](C)[C@H]12	inactive

Mixed results
Structure (SMILES)	target or system	test	test system	conditions	scale	endpoint	value
CC(=O)Nc1c(C(C)=O)c(=O)n(C)c2nc(-c3ccc(Cl)cc3Cl)c(-c3ccc(Cl)cc3)cc12	MAPK3	–	–	off-target panel	–	IC50	8610 nM
CC(=O)O[C@H]1C(=O)[C@@]2(C)[C@H]([C@H](OC(=O)c3ccccc3)[C@]3(O)C[C@H](OC(=O)[C@H](O)[C@@H](NC(=O)c4ccccc4)c4ccccc4)C(C)=C1C3(C)C)[C@]1(OC(C)=O)CO[C@@H]1C[C@@H]2O	–	–	–	–	–	solubility	~10 µg/mL (≈ 11.7 µM)
C[C@H](c1ccnc(Nc2nc3ccc(-c4cc(N(C)C)ncn4)cc3[nH]2)c1)N1CCN(C(=O)CC(F)(F)F)CC1	TBK1	biochemical	–	high ATP	–	IC50	18 nM
CC(O)(P(=O)(O)O)P(=O)(O)OP(=O)(O)OC[C@H]1O[C@@H](n2ccc(N)nc2=O)[C@@H](O)[C@@H]1O (stereo partly drawn)	–	–	human serum	pH 7.4, 37 °C	baseline: serum over buffer	release rate ratio	2 fold
Cc1c[nH]c2nccc(Oc3c(F)cc(Nc4cc(Cl)nc(N)n4)cc3F)c12	dopamine transporter	radioligand binding	–	–	–	IC50	400 nM
COc1ccc2c(O[C@@H]3C[C@H]4C(=O)N[C@]5(C(=O)O)CC5/C=C\CCCCC[C@H](NC(=O)OC5CCCC5)C(=O)N4C3)cc(-c3csc(NC(=O)C(C)C)n3)nc2c1C (stereo partly drawn)	HCV NS3	viral replication, cell-based	hepatitis C virus, genotype 1b	–	–	EC50	< 1.8 nM

Repeated from above (set 1):
SMILES	activity
C[C@@H](O)[C@H]1C(=O)N2C(C(=O)O)=C(S[C@@H]3CN[C@H](C(=O)N(C)C)C3)[C@H](C)[C@H]12	inactive
